Measurements from different studies.
Every numbered part comes from another study and shows a few of its results, in no order. Values joined by “and” are separate records of one study, mostly repeats; a detail may differ.
Chain of UniProt P46098 (whole entry, looked up): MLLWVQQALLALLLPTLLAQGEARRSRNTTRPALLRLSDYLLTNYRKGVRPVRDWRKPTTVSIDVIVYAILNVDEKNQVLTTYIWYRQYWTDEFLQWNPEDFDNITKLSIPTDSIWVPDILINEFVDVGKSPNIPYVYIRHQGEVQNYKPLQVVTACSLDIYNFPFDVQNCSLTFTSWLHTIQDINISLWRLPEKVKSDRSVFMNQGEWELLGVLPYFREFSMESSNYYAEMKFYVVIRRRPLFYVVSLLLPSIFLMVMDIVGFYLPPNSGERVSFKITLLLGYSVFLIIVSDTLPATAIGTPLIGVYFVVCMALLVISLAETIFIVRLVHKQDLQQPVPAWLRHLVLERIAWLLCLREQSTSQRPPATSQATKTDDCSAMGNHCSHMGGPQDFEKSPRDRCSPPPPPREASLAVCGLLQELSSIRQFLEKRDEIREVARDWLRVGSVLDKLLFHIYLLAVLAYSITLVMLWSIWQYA
Chain of UniProt P47898 (whole entry, looked up): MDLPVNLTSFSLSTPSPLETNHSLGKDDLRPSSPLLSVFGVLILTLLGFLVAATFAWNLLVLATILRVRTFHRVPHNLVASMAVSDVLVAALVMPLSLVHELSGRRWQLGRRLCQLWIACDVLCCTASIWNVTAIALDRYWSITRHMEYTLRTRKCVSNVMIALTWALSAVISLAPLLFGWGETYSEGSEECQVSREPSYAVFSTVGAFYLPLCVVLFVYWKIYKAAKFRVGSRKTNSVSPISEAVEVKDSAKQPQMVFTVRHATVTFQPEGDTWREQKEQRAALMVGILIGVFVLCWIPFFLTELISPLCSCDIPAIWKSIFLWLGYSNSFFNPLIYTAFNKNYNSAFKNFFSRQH
Chain of UniProt P41595 (whole entry, looked up): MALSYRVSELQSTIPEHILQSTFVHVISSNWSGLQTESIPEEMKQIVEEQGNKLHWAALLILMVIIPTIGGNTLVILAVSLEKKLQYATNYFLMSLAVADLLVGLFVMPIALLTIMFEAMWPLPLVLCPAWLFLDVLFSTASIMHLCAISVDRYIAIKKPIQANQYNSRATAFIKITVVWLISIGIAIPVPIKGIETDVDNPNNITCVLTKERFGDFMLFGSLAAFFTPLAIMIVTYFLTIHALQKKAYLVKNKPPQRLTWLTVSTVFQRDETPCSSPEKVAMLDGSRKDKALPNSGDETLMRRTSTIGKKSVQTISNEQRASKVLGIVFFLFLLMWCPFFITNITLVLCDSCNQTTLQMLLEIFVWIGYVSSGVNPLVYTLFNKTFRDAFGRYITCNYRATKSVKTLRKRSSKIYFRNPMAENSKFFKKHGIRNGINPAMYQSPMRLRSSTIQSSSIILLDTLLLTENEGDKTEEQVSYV

Sample 1 — cell line: HEK293T ATF4-firefly luciferase reporter; read-out: integrated stress response; item: ATF4; reference: DMSO
SMILES: Ic1ccc(Nc2nc(NCCN3CCOCC3)nc(N3CCOCC3)n2)cc1
conditions	reporter signal
1 µM, without ISRIB	126% and 113% and 106% and 118% and 102% and 119% and 120%
1 µM, added: ISRIB	85.1% and 68.9% and 61.6% and 70.3% and 91.7% and 88.4% and 70.1% and 81.2%
10 µM, without ISRIB	147% and 142% and 131% and 158% and 129% and 125% and 145%

Sample 2 — organism: Sarcocystis neurona; read-out: parasite growth; concentration: 10 µM; setting: secondary screen
SMILES	inhibition [%]
Clc1ccccc1C(c1ccccc1)(c1ccccc1)n1ccnc1	53
COc1cccc2c1C(=O)c1c(O)c3c(c(O)c1C2=O)C[C@@](O)(C(=O)CO)C[C@@H]3O[C@H]1C[C@H](N)[C@H](O)[C@H](C)O1	42.2
CCOC(=O)c1ncn2c1CN(C)C(=O)c1cc(F)ccc1-2	-3.6
COc1cc([C@@H]2c3cc4c(cc3[C@@H](O[C@@H]3O[C@@H]5CO[C@@H](C)O[C@H]5[C@H](O)[C@H]3O)[C@H]3COC(=O)[C@H]23)OCO4)cc(OC)c1O	-45.1

Sample 3 — read-out: binding; technique: radioligand binding; concentration: 10 µM
SMILES: O=C1CCc2cc(Nc3cc(OC4CCOCC4)c([N+](=O)[O-])cc3Cl)ccc2N1
target	inhibition [%]
HTR2B (Homo sapiens, UniProt P41595)	3.31
HTR5A (Homo sapiens, UniProt P47898)	6.14
HTR3A (Homo sapiens, UniProt P46098)	4.05

Sample 4 — dose: dose not given; reference: vehicle
SMILES: CC(=O)N[C@@H](Cc1c[nH]c2ccccc12)C(=O)N[C@@H](CCC(=O)C=[N+]=[N-])C(=O)OC(C)C
assay	system	log2 fold change
item: levulinate	mouse, EL4 tumour, tumour	-0.0868
item: putrescine	mouse, EL4 tumour-bearing, EL4 tumour	0.101
item: homocysteine	mouse, EL4 tumour-bearing, EL4 tumour	-2.49
item: cystine	mouse, EL4 tumour-bearing, EL4 tumour	2.24
item: erythritol	mouse, EL4 tumour-bearing, EL4 tumour	0.155
item: gamma-glutamylvaline	mouse, EL4 tumour-bearing, EL4 tumour	-0.0498
item: ribonate	mouse, EL4 tumour-bearing, EL4 tumour	-0.413

Excerpt of the above (sample 2):
SMILES	inhibition [%]
COc1cccc2c1C(=O)c1c(O)c3c(c(O)c1C2=O)C[C@@](O)(C(=O)CO)C[C@@H]3O[C@H]1C[C@H](N)[C@H](O)[C@H](C)O1	42.2
CCOC(=O)c1ncn2c1CN(C)C(=O)c1cc(F)ccc1-2	-3.6
COc1cc([C@@H]2c3cc4c(cc3[C@@H](O[C@@H]3O[C@@H]5CO[C@@H](C)O[C@H]5[C@H](O)[C@H]3O)[C@H]3COC(=O)[C@H]23)OCO4)cc(OC)c1O	-45.1
